Assay results gathered from unrelated publications.
Protocols differ between the studies behind these lines. ± marks the error that the study gave.
BLK: Tyrosine-protein kinase Blk (BLK, Homo sapiens, UniProt P51451)
UniProt P51451, sequence (whole entry, looked up): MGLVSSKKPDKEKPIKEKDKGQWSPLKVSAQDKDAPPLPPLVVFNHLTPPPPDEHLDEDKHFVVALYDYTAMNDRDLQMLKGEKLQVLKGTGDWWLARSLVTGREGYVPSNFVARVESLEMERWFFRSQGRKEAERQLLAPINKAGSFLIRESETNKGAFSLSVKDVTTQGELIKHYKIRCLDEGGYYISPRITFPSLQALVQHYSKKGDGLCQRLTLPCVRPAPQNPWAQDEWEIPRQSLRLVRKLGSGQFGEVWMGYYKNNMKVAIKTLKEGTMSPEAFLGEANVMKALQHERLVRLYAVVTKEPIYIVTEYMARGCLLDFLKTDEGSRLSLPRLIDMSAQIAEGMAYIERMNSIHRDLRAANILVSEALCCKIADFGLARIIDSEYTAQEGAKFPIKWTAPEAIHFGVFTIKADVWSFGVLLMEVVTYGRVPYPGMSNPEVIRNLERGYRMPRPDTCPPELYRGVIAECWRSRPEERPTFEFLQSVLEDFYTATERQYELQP
Protein lin-28 homolog A: Protein lin-28 homolog A (Mus musculus, UniProt Q8K3Y3)
UniProt Q8K3Y3, sequence (whole entry, looked up): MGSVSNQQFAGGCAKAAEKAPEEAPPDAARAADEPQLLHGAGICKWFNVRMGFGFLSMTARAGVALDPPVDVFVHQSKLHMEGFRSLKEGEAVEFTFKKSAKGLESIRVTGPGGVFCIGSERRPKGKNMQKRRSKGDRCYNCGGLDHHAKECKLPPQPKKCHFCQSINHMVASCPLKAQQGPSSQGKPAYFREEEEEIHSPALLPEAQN
TGFBR1: TGF-beta receptor type-1 (TGFBR1, Homo sapiens, UniProt P36897)
UniProt P36897, sequence (whole entry, looked up): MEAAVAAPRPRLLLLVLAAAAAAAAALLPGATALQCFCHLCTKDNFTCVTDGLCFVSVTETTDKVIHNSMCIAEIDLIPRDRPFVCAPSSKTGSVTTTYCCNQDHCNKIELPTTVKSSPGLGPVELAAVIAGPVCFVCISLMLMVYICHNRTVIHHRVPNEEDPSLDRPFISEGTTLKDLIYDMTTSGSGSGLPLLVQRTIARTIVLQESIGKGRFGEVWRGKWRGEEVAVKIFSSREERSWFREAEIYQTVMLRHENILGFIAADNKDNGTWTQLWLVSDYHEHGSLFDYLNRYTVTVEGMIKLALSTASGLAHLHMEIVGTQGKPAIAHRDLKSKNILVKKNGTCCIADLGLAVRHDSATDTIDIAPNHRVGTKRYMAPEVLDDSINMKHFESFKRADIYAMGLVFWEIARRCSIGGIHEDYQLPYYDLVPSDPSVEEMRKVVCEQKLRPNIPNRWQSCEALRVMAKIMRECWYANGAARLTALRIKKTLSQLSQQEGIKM
TYMS: Thymidylate synthase (TYMS, Homo sapiens, UniProt P04818)
UniProt P04818, sequence (whole entry, looked up): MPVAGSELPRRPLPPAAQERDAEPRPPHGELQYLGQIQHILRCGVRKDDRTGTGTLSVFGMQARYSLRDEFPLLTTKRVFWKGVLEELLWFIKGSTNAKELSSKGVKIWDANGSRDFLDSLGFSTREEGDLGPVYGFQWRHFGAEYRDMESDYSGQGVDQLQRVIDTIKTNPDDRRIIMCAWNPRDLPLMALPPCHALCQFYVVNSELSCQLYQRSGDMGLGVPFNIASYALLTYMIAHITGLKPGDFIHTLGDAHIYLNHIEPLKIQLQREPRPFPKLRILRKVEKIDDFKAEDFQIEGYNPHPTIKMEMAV
DCN1-like protein 1 PONY domain: DCN1-like protein 1, PONY domain (Homo sapiens, UniProt Q96GG9)
UniProt P53667, sequence (whole entry, looked up): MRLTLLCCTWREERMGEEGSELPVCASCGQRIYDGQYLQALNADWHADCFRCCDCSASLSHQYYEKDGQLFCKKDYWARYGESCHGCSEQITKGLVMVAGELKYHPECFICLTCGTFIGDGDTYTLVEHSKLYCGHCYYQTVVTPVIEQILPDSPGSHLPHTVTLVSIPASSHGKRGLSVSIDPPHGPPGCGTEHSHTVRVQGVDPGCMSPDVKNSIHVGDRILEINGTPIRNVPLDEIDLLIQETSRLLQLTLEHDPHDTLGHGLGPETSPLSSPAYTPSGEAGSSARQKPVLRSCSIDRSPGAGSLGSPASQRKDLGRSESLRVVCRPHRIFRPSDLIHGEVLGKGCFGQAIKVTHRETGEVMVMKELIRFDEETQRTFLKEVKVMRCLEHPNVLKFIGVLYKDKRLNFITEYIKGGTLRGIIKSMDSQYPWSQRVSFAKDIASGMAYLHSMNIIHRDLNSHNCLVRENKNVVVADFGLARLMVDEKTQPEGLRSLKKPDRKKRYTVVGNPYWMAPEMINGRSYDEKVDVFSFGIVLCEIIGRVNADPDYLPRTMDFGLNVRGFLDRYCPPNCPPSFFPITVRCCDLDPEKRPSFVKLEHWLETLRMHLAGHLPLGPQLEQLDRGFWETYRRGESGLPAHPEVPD
UniProt Q9P0L9, sequence (whole entry, unmodified, looked up): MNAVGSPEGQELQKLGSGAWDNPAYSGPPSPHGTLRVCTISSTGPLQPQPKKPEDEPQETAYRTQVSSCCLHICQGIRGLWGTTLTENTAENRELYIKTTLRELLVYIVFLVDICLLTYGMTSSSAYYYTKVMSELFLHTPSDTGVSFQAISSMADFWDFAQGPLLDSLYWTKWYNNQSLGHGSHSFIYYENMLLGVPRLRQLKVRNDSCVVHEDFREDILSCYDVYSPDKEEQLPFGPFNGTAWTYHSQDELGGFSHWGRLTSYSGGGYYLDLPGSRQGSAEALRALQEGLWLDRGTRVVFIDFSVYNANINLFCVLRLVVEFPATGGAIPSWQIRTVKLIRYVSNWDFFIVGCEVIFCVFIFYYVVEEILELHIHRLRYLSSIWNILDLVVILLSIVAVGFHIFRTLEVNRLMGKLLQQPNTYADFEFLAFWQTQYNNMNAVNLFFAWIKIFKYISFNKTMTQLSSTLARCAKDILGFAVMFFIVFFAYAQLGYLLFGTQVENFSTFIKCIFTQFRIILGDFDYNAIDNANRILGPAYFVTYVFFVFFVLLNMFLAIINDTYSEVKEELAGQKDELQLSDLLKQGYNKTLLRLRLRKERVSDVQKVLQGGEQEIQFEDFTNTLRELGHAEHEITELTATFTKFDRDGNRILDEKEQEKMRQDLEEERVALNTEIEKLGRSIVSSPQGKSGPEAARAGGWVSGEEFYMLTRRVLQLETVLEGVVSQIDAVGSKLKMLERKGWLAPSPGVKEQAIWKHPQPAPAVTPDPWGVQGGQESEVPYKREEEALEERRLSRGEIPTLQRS
UniProt P07339, sequence (whole entry, looked up): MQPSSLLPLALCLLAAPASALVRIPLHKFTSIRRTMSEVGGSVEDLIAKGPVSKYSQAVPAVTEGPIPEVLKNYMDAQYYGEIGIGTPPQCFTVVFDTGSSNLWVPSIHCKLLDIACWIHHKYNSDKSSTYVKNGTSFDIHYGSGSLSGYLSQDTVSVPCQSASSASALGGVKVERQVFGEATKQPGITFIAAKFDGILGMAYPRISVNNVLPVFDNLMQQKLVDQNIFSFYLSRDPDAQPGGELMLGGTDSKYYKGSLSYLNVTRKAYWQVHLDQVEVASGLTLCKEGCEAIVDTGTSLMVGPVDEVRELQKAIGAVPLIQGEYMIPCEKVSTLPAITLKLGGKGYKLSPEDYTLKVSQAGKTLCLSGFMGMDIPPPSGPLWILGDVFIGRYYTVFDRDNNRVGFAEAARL
UniProt P09874, sequence (whole entry, looked up): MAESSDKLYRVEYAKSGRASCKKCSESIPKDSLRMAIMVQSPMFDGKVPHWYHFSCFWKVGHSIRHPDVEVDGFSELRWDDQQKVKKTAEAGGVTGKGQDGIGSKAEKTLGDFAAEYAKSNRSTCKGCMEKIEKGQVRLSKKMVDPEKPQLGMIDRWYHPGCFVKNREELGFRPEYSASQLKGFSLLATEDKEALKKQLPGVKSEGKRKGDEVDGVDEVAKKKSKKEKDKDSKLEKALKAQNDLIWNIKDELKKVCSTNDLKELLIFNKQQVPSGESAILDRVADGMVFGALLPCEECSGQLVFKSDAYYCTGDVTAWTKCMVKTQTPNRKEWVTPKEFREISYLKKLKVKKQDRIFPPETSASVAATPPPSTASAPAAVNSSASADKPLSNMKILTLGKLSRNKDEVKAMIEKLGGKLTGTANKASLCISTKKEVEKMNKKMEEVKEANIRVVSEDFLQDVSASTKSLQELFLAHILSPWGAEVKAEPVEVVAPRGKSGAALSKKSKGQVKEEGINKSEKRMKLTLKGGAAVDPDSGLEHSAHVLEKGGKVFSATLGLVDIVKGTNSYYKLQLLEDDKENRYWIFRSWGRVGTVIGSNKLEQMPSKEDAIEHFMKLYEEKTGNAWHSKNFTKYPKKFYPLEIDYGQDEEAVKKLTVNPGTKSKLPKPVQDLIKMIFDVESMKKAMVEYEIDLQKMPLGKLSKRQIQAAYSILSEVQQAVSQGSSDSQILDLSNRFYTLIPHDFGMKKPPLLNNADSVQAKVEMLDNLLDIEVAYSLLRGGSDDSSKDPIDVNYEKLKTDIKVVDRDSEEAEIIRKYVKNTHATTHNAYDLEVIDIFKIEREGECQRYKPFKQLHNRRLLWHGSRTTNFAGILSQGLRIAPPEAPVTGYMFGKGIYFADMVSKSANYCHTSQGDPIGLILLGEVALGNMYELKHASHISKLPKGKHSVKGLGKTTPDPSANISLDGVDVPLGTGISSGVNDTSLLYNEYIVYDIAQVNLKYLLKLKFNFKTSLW
UniProt P07237, sequence (whole entry, looked up): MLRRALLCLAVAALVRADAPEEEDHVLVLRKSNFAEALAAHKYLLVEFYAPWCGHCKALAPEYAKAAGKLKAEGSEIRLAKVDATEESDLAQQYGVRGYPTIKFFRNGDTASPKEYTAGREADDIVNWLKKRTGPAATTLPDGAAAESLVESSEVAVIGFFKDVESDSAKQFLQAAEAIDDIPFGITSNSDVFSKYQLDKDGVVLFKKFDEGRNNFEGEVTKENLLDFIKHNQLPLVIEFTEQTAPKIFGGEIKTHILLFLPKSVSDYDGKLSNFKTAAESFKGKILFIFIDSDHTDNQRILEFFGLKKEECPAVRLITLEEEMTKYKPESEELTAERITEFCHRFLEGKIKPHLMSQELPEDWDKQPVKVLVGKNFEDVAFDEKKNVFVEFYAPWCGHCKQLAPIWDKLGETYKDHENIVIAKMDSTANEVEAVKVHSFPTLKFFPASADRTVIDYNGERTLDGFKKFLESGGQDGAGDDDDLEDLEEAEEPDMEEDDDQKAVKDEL

| SMILES | tested on | assay | system | conditions | measurement | value |
| --- | --- | --- | --- | --- | --- | --- |
| COc1cc2c(c(OC)c1OC)-c1c(cc3c(c1OC)OCO3)CC(C)C(C)C2 (centres unmarked) | CYP3A, rat | poziotinib metabolism to M1, inhibitor | rat liver microsomes, 0.3 mg/mL | 30 min, together with: poziotinib 5 µM | IC50 | 2550 nM |
| COc1cc2nccc(Oc3ccc(NC(=O)c4cc5c(n(-c6ccccc6)c4=O)CCCC5=O)nc3)c2cc1OC | BLK | cell viability, CellTiter-Glo | Ba/F3 expressing recombinant kinase | 48 h | IC50 | > 100 nM |
| COc1cc(O)ccc1C1CC(=O)Nc2c1c(=O)nc(SCc1ccccc1Cl)n2C (centres unmarked) | Protein lin-28 homolog A |  |  |  | IC50 | 12600 nM |
| Cc1cccc(-c2nc(-c3ccc(C(N)=O)cc3)[nH]c2-c2ccncc2)c1 | TGFBR1 | binding, LanthaScreen kinase binding |  |  | IC50 | 540 ± 104 nM |
| C[C@H]1C[C@@H](N2C(=N)N[C@](C)(c3cccc(Nc4ccc(C5CC5)nc4)c3Cl)CC2=O)CCO1 | Cathepsin D (CTSD, Homo sapiens, UniProt P07339) | enzyme activity, inhibitor | ARPE-19 |  | IC50 | 30 nM |
| Cc1onc(-c2ccccc2)c1C(=O)N1CCN(c2ccc([N+](=O)[O-])cc2Cl)CC1 | THP-1 | pyroptotic LDH release |  | 2 µM, 40 min, together with: LPS then nigericin | inhibition | -13.9% |
| CCc1ccc(NC(=O)Nc2c[nH]c3ccccc23)cc1 | TYRO protein tyrosine kinase-binding protein, with TREM1 (TYROBP, Homo sapiens, UniProt O43914) | split luciferase reporter | human cells | 6 h, treatment 48 h after induction, together with: doxycycline induction | IC50 | 4500 ± 2000 nM |
| Cc1cnc(-c2ccc(-c3ccc(NC(=O)Nc4c(F)cc(F)cc4F)cc3F)c3c2C(=O)NC3)[nH]1 | BLK | enzyme activity, inhibitor, mobility shift |  | together with: ATP 1 mM | IC50 | 5.1 nM |
| CCCOC(=O)C1CCN(C(=O)c2ccc(N(C)Cc3cnc4nc(N)nc(N)c4n3)cc2)CC1 | TYMS | inhibitor |  |  | IC50 | > 100000 nM |
| NC(=O)c1cccc2c1O/C(=C\c1ccc(C(=O)N3CCC4(CC3)C(=O)Nc3ccccc34)s1)C2=O | PARP1 (Homo sapiens, UniProt P09874) | inhibitor |  |  | IC50 | 550 nM |
| Cc1cccc(-c2nc(-c3ccc(C(=O)O)cc3)[nH]c2-c2ccncc2)c1 | TGFBR1 | binding, LanthaScreen kinase binding |  |  | IC50 | 171 ± 15.1 nM |
| CCCC(C)N1CCC(N(Cc2ccccc2NC(=O)CC)C(=O)Nc2cccc(C(F)(F)F)c2)CC1 (centres unmarked) | DCN1-like protein 1 PONY domain | inhibitor, TR-FRET |  | preincubation five hours | IC50 | 931 ± 49 nM |
| C/C(=C\CNc1ncnc2[nH]cnc12)CO | Gelsolin, peptide (GSN, Homo sapiens, UniProt P06396) |  |  |  | IC50 | 14000 ± 2000 nM |
| CC(C)(O/N=C(\C(=O)N[C@@H]1C(=O)N2C(C(=O)[O-])=C(C[n+]3ccccc3)CS[C@H]12)c1csc(N)n1)C(=O)O | THP-1 | pyroptotic LDH release |  | 2 µM, 40 min, together with: LPS then nigericin | inhibition | -1.07% |
| COC(=O)C1CCN(C(=O)c2ccc(N(CCCO)Cc3cnc4nc(N)nc(N)c4n3)cc2)CC1 | TYMS | inhibitor |  |  | IC50 | > 100000 nM |
| O=c1[nH]c(-c2ccccn2)nc2c1CSCC2 | Protein lin-28 homolog A |  |  |  | IC50 | 15500 nM |
| CCCC(C)N1CCC(N(Cc2cccc(CNC(=O)CCl)c2)C(=O)Nc2cccc(C(F)(F)F)c2)CC1 (centres unmarked) | DCN1-like protein 1 PONY domain | binding, inhibitor, TR-FRET |  | 24 h, racemic mixture | IC50 | 28 ± 38 nM |
| O=c1c(O[C@@H]2O[C@H](CO)[C@@H](O)[C@H](O)[C@H]2O)c(-c2ccc(O)c(O)c2)oc2cc(O)cc(O)c12 | P4HB (Homo sapiens, UniProt P07237) | reductase activity, inhibitor, fluorogenic BD-SS |  | purified PDI | IC50 | 2700 nM |
| N=C(N)c1ccc(CNC(=O)c2cnn(Cc3ccccc3)c2)cc1 | F11 (Homo sapiens, UniProt P03951) |  |  |  | IC50 | 22000 nM |
| Cc1cccc(-c2nc(C#CCCO)[nH]c2-c2ccncc2)c1 | TGFBR1 | binding, LanthaScreen kinase binding |  |  | IC50 | > 5000 nM |
| CCCCOc1cc(C(=O)NCCN(CC)CC)c2ccccc2n1 | PKD2L1 (Homo sapiens, UniProt Q9P0L9, F549H) | ion current, inhibitor |  | F549H | IC50 | 17500 nM |
| Nc1ncnc2c1ncn2[C@@H]1O[C@H](CSCC[C@H](N)C(=O)O)[C@@H](O)[C@H]1O | SUV39H2 (Homo sapiens, UniProt Q9H5I1) | enzyme activity, inhibitor |  | single data points | IC50 | 55100 nM |
| CN1CCN(c2ccc(Nc3ncc4cc(C#N)c(=O)n(C5CCCC5)c4n3)cc2)CC1 | LIM domain kinase 1 (LIMK1, Homo sapiens, UniProt P53667) |  |  |  | IC50 | 85.5 nM |

Repeated from above:
| SMILES | tested on | assay | system | conditions | measurement | value |
| --- | --- | --- | --- | --- | --- | --- |
| NC(=O)c1cccc2c1O/C(=C\c1ccc(C(=O)N3CCC4(CC3)C(=O)Nc3ccccc34)s1)C2=O | PARP1 (Homo sapiens, UniProt P09874) | inhibitor |  |  | IC50 | 550 nM |
| Cc1cccc(-c2nc(-c3ccc(C(=O)O)cc3)[nH]c2-c2ccncc2)c1 | TGFBR1 | binding, LanthaScreen kinase binding |  |  | IC50 | 171 ± 15.1 nM |
| CCCC(C)N1CCC(N(Cc2ccccc2NC(=O)CC)C(=O)Nc2cccc(C(F)(F)F)c2)CC1 (centres unmarked) | DCN1-like protein 1 PONY domain | inhibitor, TR-FRET |  | preincubation five hours | IC50 | 931 ± 49 nM |
